Measurements from different studies.
Numbered parts are unrelated; each lists some results of a single study. Positions count from the first letter of the parent shown.

Block 1 — technique: RNA Bind-n-Seq; form: RNA; medium: in vitro; tested at: 365 nM; baseline: no-protein control; reading: higher = stronger binding
Target: RNA binding protein fox-1 homolog 2, RRM domain, GST-SBP tag (RBFOX2, Homo sapiens, UniProt O43251-10, residues 100-194)
Notes: natural RNA segment, single round, ends assumed
Constant ends, left off below: GGGAGUUCUACAGUCCGACGAUC … UGGAAUUCUCGGGUGCCAA
Target sequence (chain): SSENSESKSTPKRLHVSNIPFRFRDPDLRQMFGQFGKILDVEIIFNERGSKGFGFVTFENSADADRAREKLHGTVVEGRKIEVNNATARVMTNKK
Sequence | RBNS enrichment (R)
UAAAAUUUUAAUCCUUACUGCAUUUCUUCUGUUCCUACAAAUGUAUUAAACAUUCAGUUUAACUGGUGUUCAUUUUCUUUUAAAGUCUAUUGAAAUAUUCAAAAGGGAAA | 0.613
ACGCUGAUGGGCACUGGAGAGGCCAGAAGAGACUCAGAGGAGCGGGCUGCCUUCCGCCUGGGGCUCCCUGUGACCUCUCAGUCCCCUGGCCCGGCCAGCCACCGUCCCCA | 0.413
UCAUGCCUGAGUCAGGAAUACAUGGAGAGACAGCCUACAUCUGACAGACUCCCACAAAACAAACUGCCAGCAAACUUUCUAACUCAUUUUAACCGUUCAAGCGGGGAAUU | 0.662
UUAGCACUUAGGAAGCUUCUCCAACCUGUGCUCUAGGUCAGUAAAACUUCGUCCUCUGAAAUGCUUUUCUGUACUAAACUAACUUGAACGUGACCUAGAAACCAAGAGAU | 0.75
UGCACUCUUGGCUGGUGUGAGUCAGCUACAGAGAAGGUAAUACGCCAUGUGGGAGGCCAAGGAGGCUGCAGUGAGACUCUUCCACGGAACCAUGACGCUAGUGCAGUGAC | 0.376
UUGAGUUCUGUCUAUAGCCCAGCAGGCUGCCUGUUUAAAAUCCCAUCAUGAAUUUAACAGGCUGAUGUGAGAAUGAAAUAGAUAUUACUGGGGUUUUGUUGUUGUUUGUU | 0.83
GUGUUAUGGGUGUACAUAUUUGUAUAUUUUUUGUCAUCCUGAGAUACUUCUAAUUUCAUUGUAUAUAGGUGGUUUUCCCUGGAAUUCAUUAAUUGUUUGCUUUGGACAUG | 1.49
AGGCAGCCUCGCUCACAGCCAGGCACGUAGCUUGCUUCUGAGAUGUGGCAGGCCCUGUCCCAAGGCCAAGGGAGGAGAAGGCUGUCCCACGUGGGCCGCUGAACUGUGUC | 0.264

Block 2 — target: CCNB2, cyclin fold, Cln2 fusion (human); technique: yeast growth competition, sequencing; medium: yeast; notes: weak parent motif; baseline: not given; reading: higher = stronger binding
Parent: WEE1 docking peptide (human); HKTFRKLRLFDTP
Substitution | normalised enrichment score
P13G | -0.0717
R5A L7A | 0.837
L7D | -0.173
D11R | 0.51
H1K | 1.34
K6V | 0.0337
D11C | 0.611
D11G | -0.228
L9S | 1.08
D11S | 0.516
F4A | 0.485
T3N | 0.118
T12S | 0.846
T3G | 1.02
R8S | 0.681
K2S | 0.576
T3F | 0.049
L9H | 0.435
T3W | 0.327
R5N | -4.21
F10I | 1.21
P13T | 0.916
R8I | 0.774
T3Q | 0.455

Block 3 — technique: RNA Bind-n-Seq; form: RNA; medium: in vitro; tested at: not given; baseline: input RNA pool; reading: higher = stronger binding
Target: RING finger protein unkempt homolog, zinc fingers 1-6, GST-SBP tag (UNK, Homo sapiens, UniProt Q9C0B0, residues 30-357)
UniProt Q9C0B0, sequence (30-357, looked up): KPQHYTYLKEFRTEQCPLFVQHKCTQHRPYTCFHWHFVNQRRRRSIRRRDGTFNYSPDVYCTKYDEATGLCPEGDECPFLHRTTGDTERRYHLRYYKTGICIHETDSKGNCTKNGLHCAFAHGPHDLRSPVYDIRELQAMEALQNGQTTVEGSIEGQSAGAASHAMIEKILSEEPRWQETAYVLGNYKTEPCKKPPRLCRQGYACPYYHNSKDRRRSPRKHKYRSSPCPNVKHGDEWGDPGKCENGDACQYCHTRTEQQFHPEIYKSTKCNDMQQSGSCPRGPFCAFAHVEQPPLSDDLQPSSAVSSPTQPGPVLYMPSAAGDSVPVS
Notes: RNA with constant flanks, human-mouse chimeric sites, ends assumed
Constant ends, left off below: GGGAGUUCUACAGUCCGACGAUC … CAACAGAGGAUUGAGCAUCA
Sequence | bound/input enrichment [ratio]
UCUUAACUUAUUCAUUUAACUUAUUUUUAUAGCUAGAUAAAUAUUGUUAGUCUUAGAGAGUAGUUCACAUUUUUUGAGAAGCAUGCCCUCCCUGUCCAUUUGUCUUAUAACAUGACCCAG | 8.32
GGAAGUACAAUGAUGGAGAUUGAUGGUGACAAAGGCAAACAAGGCGGGCCCACCUACUACAUAGAUACCAAUGCCCUCCGCGUGCCCAGGGAGAACAUGGAGGCCAUCUCACCACUCAAG | 0.273
UUACCCGAAAAUGAAGAUGAAUUGGAGAGCACCAACAGGCGCUACACCAAGAGGGACUGCAGCACUUUCCUCAGAACUAGUGAGACGGGCAUCGUGGACCAGGUCAUGGUCACUCUCAAC | 0.243
AAGGUGAUGACUAUGUUUGUCCAACGACAGGUAUUUUCGGAGAGCAAAGAUGAGAUUGCGUUAGUCCUCUAUGGCACAGAUGGCACUGAUAAUGCCCUUUCUGGUGGGGACCAGUAUCAG | 0.216
GAUCCACAGUGGUCUGAGGAGCAACUCAUUGCUGCAAAAUUCUGUUUUGCUGGCCUUCUUAUAGGCCAGACUGAAGUGGACAUCAUGAGUCAUGCCACACAGGCUAUUUUUGAAAUUCUG | 0.128
CACGUGUCUGCAGUGCUUGAUGUGGACUACUCUCCCACUGGGAAGGAGUUUGUGUCUGCCAGCUUUGAUAAGUCUAUUAGAAUCUUUCCUGUGGACAAGAGCCGAAGCAGGGAAGUGUAU | 0.439
GGGACUGAUUCAUCCCAAGGACAGGCCACCCCAUUUGGUGUUUGGAAUGAUGACAGUAUGGAAGGGCCUAGUCAAAAUGUUGAAGCUGAGUCAAUUCAAGAUAAUGCGAGUAUGGAAGAG | 0.289
UUAUCCAAGACUCAACGAAAGACUCCAACGGUUAUUCAUAAACAUUACCAAAUACAUCGGAUUCGACAUUUUUACAUGAGAAAAGUCAAAUUUACUCAACAGAAUUACCAUGACAGACUG | 0.215

Block 4 — technique: protein-binding microarray; form: hairpin DNA; medium: in vitro; tested at: not given; baseline: not given; reading: higher = stronger binding; constant ends, left off below: GAGGCC … GGCCTCACACTCTTTCCCTACACG
Target: Signal transducer and activator of transcription 1-alpha/beta, full length (STAT1, Homo sapiens, UniProt P42224, residues 1-750)
UniProt P42224, sequence (whole entry, looked up): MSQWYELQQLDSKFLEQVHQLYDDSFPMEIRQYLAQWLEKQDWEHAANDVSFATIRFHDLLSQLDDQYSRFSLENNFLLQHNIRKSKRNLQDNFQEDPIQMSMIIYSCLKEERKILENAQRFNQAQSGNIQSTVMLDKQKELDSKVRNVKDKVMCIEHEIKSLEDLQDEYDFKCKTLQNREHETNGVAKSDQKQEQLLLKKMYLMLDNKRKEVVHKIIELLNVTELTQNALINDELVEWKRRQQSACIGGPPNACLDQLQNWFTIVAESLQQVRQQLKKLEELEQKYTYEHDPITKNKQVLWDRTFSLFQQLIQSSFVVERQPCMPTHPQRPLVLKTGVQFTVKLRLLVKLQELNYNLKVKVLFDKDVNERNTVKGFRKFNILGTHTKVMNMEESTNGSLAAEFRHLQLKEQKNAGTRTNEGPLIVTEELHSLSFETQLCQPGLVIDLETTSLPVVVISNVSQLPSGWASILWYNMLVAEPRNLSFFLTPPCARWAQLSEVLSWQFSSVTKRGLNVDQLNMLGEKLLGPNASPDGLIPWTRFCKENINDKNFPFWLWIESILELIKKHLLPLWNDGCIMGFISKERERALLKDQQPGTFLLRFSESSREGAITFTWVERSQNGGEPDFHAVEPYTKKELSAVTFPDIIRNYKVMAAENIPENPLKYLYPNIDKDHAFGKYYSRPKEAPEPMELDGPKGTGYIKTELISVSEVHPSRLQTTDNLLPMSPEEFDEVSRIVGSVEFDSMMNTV
Notes: whole hairpin DNA, median over replicate spots
Sequence | median fluorescence
TCACCCGGAAGCCTCCTGGCTTCCGGGTGA (5mC at 8) | 1730 a.u.
TTTCCCGCCAGCCTCCTGGCTGGCGGGAAA (5mC at 14) | 1000 a.u.
TTTCCCGGACGCCTCCTGGCGTCCGGGAAA | 1330 a.u.
TTTCCCGGCTGCCTCCTGGCAGCCGGGAAA (5mC at 15) | 952 a.u.
CTTCCCGGAAGCCTCCTGGCTTCCGGGAAG | 10300 a.u.
TTTCCCCGAAGCCTCCTGGCTTCGGGGAAA (5mC at 29) | 3060 a.u.
TTTCCCGCAAGCCTCCTGGCTTGCGGGAAA (5mC at 14) | 1290 a.u.
TTTCCCCTAAGCCTCCTGGCTTAGGGGAAA | 1350 a.u.
TTTCCCCGAAGCCTCCTGGCTTCGGGGAAA | 4030 a.u.
TTTCCCGGAAGCCTCCTGGCTTCCGGGAAA (5mC at 12) | 3960 a.u.
